Experimental data collected from several papers.
Numbered parts are unrelated; each lists some results of a single study.
Chain of UniProt Q04759 (whole entry, looked up): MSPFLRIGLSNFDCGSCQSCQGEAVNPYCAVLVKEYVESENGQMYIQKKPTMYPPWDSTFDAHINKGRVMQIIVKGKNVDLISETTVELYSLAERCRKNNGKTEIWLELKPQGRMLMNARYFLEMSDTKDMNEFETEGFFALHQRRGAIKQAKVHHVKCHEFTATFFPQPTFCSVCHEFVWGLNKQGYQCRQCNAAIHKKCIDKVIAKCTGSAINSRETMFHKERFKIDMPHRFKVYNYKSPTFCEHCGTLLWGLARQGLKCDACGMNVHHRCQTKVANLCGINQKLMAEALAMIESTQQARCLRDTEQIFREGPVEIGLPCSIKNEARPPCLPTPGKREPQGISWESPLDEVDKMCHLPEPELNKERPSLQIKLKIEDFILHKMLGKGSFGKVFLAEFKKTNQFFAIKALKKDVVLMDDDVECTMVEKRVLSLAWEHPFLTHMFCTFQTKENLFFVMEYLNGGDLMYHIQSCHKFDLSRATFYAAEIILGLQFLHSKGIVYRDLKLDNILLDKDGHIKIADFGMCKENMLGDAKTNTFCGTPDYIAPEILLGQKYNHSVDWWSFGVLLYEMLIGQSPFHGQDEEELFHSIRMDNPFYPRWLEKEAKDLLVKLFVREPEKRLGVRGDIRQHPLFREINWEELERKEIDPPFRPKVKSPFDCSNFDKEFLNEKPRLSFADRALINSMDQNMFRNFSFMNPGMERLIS
Chain of UniProt Q9HBY8 (whole entry, looked up): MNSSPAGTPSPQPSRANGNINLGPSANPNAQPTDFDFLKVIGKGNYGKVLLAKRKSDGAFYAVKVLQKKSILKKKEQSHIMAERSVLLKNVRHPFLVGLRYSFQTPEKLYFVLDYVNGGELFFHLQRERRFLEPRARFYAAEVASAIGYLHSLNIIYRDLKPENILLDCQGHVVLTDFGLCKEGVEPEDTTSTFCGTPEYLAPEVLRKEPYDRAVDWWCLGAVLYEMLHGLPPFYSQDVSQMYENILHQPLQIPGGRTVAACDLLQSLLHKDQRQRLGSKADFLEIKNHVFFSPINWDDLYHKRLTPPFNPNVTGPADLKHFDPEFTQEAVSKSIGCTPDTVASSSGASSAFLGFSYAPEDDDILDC
Chain of UniProt Q06418 (whole entry, looked up): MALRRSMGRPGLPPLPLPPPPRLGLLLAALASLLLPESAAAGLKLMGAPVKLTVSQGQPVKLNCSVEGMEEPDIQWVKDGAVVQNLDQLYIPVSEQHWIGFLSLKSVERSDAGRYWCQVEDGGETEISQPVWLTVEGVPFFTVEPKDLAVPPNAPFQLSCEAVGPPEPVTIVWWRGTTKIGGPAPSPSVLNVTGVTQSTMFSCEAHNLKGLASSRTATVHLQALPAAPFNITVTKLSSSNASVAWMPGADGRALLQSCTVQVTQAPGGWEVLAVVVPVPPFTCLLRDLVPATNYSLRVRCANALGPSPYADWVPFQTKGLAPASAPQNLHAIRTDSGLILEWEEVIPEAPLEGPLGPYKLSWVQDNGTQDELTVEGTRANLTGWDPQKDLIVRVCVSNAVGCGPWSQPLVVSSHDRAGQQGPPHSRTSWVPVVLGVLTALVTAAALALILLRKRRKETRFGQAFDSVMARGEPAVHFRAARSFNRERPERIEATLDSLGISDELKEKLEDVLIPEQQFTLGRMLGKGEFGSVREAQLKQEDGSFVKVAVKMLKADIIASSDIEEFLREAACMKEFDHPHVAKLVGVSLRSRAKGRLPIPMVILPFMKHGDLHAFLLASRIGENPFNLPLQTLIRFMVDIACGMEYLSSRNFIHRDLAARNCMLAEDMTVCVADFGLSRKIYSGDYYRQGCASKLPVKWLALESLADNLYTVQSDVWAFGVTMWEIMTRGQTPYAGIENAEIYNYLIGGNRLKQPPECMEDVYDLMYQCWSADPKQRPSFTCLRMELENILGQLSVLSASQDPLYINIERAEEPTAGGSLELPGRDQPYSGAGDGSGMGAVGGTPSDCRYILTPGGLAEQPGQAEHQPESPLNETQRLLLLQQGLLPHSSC
Chain of UniProt Q9NQU5 (whole entry, looked up): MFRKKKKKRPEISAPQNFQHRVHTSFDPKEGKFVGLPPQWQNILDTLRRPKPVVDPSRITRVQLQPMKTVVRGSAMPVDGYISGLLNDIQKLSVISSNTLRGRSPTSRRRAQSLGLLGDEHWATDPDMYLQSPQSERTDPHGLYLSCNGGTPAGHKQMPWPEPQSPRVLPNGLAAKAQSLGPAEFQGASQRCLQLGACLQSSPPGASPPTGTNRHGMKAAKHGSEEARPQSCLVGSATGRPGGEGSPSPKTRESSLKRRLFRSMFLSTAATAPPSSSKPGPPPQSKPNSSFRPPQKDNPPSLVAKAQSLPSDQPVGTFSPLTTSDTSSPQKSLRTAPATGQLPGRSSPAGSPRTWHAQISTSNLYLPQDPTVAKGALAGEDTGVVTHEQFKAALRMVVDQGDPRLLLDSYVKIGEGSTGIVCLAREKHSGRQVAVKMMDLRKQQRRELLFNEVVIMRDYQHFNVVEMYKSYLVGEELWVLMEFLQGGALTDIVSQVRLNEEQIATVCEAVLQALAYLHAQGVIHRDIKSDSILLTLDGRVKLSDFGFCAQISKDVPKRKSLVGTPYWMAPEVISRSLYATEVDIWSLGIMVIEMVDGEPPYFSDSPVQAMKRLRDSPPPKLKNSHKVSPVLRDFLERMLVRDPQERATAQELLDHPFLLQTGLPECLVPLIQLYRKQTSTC
Chain of UniProt Q9P0L2 (whole entry, looked up): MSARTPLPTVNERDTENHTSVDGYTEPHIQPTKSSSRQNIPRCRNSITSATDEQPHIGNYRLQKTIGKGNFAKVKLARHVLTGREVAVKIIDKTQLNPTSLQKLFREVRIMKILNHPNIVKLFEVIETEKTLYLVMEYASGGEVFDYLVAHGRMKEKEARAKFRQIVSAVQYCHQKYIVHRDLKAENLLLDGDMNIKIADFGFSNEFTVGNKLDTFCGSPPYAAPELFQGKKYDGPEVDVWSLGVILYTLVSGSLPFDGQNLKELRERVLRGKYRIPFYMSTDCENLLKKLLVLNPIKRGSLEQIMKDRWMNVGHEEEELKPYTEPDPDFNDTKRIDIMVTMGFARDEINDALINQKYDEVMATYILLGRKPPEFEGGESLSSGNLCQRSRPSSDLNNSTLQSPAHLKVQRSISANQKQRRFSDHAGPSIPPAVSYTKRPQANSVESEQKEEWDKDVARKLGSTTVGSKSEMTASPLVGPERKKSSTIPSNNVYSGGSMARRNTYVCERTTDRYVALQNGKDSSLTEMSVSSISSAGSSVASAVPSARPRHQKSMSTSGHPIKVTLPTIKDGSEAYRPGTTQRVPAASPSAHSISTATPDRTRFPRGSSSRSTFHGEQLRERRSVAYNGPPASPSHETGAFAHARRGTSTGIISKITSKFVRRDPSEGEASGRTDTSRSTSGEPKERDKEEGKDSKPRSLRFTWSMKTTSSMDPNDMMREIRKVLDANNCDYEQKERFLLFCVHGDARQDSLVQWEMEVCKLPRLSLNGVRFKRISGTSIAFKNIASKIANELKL
Chain of UniProt P42680 (whole entry, looked up): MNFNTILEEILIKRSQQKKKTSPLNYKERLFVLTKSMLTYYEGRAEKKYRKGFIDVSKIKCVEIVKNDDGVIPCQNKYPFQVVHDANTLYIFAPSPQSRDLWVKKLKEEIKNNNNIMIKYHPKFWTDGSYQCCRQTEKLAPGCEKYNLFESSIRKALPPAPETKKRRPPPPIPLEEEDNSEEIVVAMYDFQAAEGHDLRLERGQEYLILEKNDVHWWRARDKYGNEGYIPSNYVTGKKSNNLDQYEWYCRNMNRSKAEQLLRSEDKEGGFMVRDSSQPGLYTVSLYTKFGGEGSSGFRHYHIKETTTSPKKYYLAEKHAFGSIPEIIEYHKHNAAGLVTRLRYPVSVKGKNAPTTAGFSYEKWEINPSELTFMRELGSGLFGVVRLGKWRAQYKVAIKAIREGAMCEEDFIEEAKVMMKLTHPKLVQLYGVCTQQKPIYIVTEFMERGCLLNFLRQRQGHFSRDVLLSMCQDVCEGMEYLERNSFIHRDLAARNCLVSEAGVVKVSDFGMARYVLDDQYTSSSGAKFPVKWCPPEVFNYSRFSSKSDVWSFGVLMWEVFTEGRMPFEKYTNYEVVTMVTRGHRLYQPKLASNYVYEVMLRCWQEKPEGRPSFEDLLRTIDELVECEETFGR
Chain of UniProt Q05513 (whole entry, looked up): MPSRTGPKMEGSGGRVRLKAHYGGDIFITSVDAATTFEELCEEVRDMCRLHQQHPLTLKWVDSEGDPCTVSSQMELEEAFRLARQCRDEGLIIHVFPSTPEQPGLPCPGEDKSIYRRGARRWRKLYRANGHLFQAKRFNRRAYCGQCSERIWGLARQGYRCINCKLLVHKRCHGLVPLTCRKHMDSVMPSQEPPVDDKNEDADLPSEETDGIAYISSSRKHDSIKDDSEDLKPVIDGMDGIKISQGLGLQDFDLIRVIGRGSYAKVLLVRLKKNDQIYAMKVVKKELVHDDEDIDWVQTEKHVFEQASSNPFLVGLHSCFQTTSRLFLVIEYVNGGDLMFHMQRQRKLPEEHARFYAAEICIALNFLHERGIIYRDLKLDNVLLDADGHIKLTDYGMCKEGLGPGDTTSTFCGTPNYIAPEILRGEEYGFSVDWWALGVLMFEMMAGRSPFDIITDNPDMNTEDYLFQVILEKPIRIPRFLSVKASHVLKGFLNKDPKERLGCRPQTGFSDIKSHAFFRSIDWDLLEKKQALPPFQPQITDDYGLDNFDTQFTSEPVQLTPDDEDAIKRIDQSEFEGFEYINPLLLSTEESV

Study 1
Target: Interferon regulatory factor 5, full length, phosphomimetic (IRF5, Homo sapiens, UniProt Q13568-2, residues 1-514, S451D/S453D/S456D/S462D)
Technique: protein-binding microarray
Molecule type: double-stranded DNA, one strand shown
Sample: in vitro
Tested at: 940 nM top
Notes: 60-bp whole probe
With: salmon DNA 0.4 mg/ml
Reference: random background probes
Reading: higher = stronger binding
Constant ends, left off below: GCCTAGCAC … GTCTTGATTCGCTTGACGCTGCTG
Oligonucleotide	fitted relative affinity [z-score]
TTAGATCTCAGACTGGATTGGTGCTAG	-0.314
GACGATCTCAGTTACGAGACGTGCTAG	-0.0246
GACGAACTGAGTATCGAGATGTGCTAG	1.35
TCACCTTTGCCTCCAGGACTGTGCTAG	0.398
TTTGGTTTCGGTCTCGGTTAGTGCTAG	17.9
GTAGATATCAGTCTCGATTAGTGCTAG	2.97
TTAGATTTCGGTCTCGGTTAGTGCTAG	4.97
GACGGGCTGGGGTATCGGGACGTGCTA	0.655

Study 2
Target: PABPC1L2, full length, GST fusion (mouse, UniProt A0ABA7IW68)
Technique: RNAcompete
Molecule type: RNA
Sample: in vitro
Tested at: 20 nM
Notes: 7-mer, probes averaged, single round
Reference: mean of 7-mers
Reading: higher = stronger binding
Construct (chain): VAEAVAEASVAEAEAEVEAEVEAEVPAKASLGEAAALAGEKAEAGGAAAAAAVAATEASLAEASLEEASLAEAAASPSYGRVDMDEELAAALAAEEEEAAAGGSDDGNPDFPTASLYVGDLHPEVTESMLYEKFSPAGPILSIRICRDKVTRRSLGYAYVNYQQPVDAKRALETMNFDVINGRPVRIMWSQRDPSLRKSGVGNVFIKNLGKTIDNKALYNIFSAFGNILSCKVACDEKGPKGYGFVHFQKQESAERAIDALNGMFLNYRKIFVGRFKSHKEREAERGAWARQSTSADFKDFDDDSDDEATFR
Oligonucleotide	7-mer Z-score
CAUACCG	-0.345
UGAUGAA	-0.0863
CCAUUCA	-0.295
GAUGAGA	-0.0355
UCGCACA	-0.222
AGCCAGG	0.0189
UUUCAGC	-0.315
AAUAGUG	0.126

Study 3
SMILES: CC(C)c1nn(-c2c(Cl)cccc2Cl)c2nc(Cc3ccc(OCCO)cc3)[nH]c(=O)c12
Observed: enzyme activity
Action: inhibitor
Tested at: 0.5 µM
Reference: control
target	remaining activity
SIK2 (Homo sapiens, UniProt Q9H0K1)	116%
SGK2 (Homo sapiens, UniProt Q9HBY8)	101%
TEC (Homo sapiens, UniProt P42680)	105%
PRKCQ (Homo sapiens, UniProt Q04759)	97.3%
JAK2 (Homo sapiens, UniProt O60674)	98.3%
PRKCZ (Homo sapiens, UniProt Q05513)	96.9%
MARK1 (Homo sapiens, UniProt Q9P0L2)	93.3%
MAP3K20 (Homo sapiens, UniProt Q9NYL2)	94.4%
FLT1 (Homo sapiens, UniProt P17948)	87.2%
RPS6KA3 (Homo sapiens, UniProt P51812)	88.4%
ACVRL1 (Homo sapiens, UniProt P37023)	103%
PAK6 (Homo sapiens, UniProt Q9NQU5)	102%
TYRO3 (Homo sapiens, UniProt Q06418)	97.8%

Single results of other studies
Compound	target	assay	setting	quantity	value
CC(C)CC(=O)N1CCc2nc(-c3ccc(Br)cc3)nc(N(C)Cc3ccccc3)c2C1	Interleukin-1 receptor-associated kinase 4 (IRAK4, Homo sapiens, UniProt Q9NWZ3)	cell-free assay, competition with immobilised ligand	0.1 µM	remaining binding	100%

Excerpt of the above (study 3):
target	remaining activity
ACVRL1 (Homo sapiens, UniProt P37023)	103%
PAK6 (Homo sapiens, UniProt Q9NQU5)	102%
TYRO3 (Homo sapiens, UniProt Q06418)	97.8%
